Published values gathered from unrelated publications.
Numbered parts are unrelated; each lists some results of a single study. Several values in a cell are separate wells, animals, samples, runs or records.
Chain of UniProt Q04759 (whole entry, looked up): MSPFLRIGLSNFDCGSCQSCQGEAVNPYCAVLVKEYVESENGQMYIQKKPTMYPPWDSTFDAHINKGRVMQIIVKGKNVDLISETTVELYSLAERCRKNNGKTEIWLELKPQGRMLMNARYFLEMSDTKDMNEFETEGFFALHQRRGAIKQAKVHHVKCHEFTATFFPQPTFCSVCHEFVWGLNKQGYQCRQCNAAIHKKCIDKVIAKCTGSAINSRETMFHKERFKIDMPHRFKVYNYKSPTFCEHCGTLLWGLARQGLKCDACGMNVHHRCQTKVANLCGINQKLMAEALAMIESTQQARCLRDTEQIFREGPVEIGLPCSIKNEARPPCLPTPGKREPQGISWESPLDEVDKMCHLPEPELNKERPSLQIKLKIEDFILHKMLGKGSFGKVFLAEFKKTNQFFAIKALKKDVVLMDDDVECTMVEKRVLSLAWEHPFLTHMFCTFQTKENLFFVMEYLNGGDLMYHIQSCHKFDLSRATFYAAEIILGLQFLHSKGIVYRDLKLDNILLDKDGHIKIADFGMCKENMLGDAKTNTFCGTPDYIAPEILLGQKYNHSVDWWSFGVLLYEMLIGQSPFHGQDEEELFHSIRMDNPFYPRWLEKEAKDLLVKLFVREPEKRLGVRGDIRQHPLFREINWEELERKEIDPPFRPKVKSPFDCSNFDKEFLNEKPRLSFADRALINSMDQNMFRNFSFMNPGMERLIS
Chain of UniProt Q9BQI3 (whole entry, looked up): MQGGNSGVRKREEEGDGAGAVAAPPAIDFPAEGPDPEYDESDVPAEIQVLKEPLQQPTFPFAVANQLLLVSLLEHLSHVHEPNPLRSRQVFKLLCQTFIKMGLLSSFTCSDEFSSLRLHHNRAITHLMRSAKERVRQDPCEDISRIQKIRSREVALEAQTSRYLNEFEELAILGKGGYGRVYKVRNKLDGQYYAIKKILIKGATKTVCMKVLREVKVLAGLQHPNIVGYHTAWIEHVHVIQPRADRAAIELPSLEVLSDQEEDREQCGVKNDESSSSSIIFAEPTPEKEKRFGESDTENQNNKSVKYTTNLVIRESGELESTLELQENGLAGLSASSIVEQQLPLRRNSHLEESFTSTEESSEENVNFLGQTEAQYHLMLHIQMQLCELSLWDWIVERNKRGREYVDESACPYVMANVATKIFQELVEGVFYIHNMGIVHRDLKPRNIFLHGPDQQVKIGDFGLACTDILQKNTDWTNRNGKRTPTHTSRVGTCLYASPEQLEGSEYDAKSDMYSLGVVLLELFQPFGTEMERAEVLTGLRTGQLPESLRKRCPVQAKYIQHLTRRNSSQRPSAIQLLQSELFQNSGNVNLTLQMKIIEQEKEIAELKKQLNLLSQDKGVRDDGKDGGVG
Chain of UniProt Q8IU85 (whole entry, looked up): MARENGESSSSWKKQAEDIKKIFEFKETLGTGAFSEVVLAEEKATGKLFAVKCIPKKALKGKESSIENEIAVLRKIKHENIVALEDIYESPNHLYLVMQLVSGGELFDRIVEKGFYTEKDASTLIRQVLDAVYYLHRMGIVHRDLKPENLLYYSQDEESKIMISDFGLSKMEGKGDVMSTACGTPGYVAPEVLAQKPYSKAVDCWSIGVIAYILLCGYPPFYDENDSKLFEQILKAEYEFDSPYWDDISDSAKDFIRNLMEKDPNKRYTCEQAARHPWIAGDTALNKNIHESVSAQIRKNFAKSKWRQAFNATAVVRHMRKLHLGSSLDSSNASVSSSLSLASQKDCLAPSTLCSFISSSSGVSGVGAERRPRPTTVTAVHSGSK
Chain of UniProt Q8NI60 (whole entry, looked up): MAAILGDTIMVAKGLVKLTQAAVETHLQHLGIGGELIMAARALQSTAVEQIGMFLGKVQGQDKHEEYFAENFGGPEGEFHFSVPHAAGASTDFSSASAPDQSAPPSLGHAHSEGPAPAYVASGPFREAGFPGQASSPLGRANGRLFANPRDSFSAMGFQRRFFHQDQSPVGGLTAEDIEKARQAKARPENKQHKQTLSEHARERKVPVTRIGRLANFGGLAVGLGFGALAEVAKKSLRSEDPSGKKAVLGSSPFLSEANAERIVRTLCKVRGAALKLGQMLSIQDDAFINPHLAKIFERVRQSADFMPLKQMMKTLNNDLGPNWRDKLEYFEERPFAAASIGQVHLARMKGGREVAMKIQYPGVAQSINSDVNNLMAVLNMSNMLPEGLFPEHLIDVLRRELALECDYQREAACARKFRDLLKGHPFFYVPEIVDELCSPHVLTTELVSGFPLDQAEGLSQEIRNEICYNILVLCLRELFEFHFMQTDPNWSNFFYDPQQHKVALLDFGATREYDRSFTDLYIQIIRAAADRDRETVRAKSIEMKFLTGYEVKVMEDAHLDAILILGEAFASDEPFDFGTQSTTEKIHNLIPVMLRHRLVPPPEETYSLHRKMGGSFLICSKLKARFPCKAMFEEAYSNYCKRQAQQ
Chain of UniProt O96017 (whole entry, looked up): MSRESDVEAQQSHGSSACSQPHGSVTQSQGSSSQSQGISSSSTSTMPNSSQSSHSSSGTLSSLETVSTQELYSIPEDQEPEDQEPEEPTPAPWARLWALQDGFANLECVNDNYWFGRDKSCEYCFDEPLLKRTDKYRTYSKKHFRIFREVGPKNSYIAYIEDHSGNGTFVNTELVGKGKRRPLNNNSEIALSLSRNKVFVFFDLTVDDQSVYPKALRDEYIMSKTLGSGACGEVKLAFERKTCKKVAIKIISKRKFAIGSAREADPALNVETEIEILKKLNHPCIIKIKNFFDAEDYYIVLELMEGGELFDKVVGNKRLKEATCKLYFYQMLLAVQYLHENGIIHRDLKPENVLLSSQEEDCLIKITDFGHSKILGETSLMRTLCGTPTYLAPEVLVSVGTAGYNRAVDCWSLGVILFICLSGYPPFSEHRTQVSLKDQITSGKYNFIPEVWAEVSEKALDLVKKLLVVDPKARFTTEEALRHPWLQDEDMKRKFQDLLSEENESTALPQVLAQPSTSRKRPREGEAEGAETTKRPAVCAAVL
Chain of UniProt P45983 (whole entry, looked up): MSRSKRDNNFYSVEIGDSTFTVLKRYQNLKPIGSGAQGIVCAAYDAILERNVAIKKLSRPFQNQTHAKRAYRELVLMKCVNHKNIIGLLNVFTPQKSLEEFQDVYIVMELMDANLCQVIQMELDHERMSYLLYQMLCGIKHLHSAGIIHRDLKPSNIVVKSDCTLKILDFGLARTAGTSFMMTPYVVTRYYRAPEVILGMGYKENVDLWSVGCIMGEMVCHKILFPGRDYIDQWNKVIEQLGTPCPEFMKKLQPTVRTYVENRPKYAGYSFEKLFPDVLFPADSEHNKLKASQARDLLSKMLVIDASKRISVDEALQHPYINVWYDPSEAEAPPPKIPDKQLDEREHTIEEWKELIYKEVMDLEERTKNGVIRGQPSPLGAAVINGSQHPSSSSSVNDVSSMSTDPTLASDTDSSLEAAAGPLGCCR
Chain of UniProt P42336 (whole entry, unmodified, looked up): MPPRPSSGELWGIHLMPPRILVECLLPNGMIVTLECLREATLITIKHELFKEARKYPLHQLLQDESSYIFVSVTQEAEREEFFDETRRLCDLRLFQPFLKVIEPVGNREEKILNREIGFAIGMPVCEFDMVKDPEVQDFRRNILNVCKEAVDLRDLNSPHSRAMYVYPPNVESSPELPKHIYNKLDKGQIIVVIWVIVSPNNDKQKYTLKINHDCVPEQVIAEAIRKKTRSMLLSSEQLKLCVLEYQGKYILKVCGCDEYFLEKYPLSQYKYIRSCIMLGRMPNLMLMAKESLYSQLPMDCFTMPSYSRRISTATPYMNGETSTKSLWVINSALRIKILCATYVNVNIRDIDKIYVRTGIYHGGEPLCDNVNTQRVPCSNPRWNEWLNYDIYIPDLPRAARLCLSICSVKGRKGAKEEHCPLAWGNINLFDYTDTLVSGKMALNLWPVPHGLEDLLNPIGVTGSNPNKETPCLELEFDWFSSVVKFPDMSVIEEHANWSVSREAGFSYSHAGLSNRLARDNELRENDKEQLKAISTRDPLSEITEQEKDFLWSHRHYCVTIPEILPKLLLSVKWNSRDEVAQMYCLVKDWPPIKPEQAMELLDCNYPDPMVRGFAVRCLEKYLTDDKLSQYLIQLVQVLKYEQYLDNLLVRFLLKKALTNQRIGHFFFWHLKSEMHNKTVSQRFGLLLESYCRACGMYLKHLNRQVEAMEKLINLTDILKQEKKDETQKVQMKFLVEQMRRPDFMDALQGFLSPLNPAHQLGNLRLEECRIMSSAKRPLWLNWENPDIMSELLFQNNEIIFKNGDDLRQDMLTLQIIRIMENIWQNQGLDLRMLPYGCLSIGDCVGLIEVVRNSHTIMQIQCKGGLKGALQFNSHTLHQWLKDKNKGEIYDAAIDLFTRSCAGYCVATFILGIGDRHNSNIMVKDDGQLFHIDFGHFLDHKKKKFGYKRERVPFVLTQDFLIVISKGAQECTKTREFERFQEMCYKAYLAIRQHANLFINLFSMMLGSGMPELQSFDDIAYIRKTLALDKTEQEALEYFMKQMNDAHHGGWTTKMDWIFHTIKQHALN

Series 1
Target: Centromere-binding protein 1, full length, His-tagged (CBF1, Saccharomyces cerevisiae, UniProt P17106, residues 1-351)
Chain of UniProt P17106 (whole entry, looked up): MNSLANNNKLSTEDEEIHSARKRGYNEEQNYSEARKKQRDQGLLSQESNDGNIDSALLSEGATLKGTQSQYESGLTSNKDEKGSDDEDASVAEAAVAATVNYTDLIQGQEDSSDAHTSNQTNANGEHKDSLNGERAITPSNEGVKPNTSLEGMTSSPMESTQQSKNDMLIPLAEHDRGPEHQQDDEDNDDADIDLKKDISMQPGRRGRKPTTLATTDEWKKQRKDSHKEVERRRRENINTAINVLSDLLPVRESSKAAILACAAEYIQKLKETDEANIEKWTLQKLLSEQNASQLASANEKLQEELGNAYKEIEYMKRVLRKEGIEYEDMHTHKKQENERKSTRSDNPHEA
Method: competition protein-binding microarray
Form: double-stranded DNA, one strand shown
Sample: in vitro
Concentration: 2 µM
Notes: whole 60-bp probe, lowest competitor level
Added: Pho4 competitor, 0.05 µM
Reading: higher = stronger binding
Endpoint: fluorescence intensity
Shared flanks, not repeated: … GTCTTGATTCGCTTGACGCTGCTG
GCCATCTGTAATCAACATGTGAACTGAATGAAGCCG: 223 a.u.
AACTGTACCGGCTGGCACGTCGTACACAGAATCAGA: 60.7 a.u.
CGGGGTTAAGTTTGCAGCGTGGGTGGCTTGCAGCAG: 62.2 a.u.
CGGGGTTAAGTTTGTATCGTGGGTGGCTTGCAGCAG: 71 a.u.
GAAACGGGTGGGAATGACGTGGTAATCAATGAACTA: 70.2 a.u.
CGTCCTAGTGATTGGCCAGTGGGTGCCATGAGGAAG: 74.1 a.u.
CCTTATGTTATATGGCAGGTGAAATTGTGGGGCTAC: 79.8 a.u.
CTTTCCCGATCTTGTCACATCACTTTAGCACATTTG: 79.4 a.u.

Series 2
Structure (SMILES): CN(C(=O)c1ccccc1)c1cc(N(C)c2ccc3c(c2)CCc2ccc(C(=O)NCCN4CCOCC4)cc2C3=O)ccc1F
Read-out: cell-free assay
Method: competition with immobilised ligand
Concentration: 1 µM
Endpoint: remaining binding
Calcium/calmodulin-dependent protein kinase type 1D (CAMK1D, Homo sapiens, UniProt Q8IU85): 100%
Mitogen-activated protein kinase 8 (MAPK8, Homo sapiens, UniProt P45983): 82%
Eukaryotic translation initiation factor 2-alpha kinase 1 (EIF2AK1, Homo sapiens, UniProt Q9BQI3): 94%
Mast/stem cell growth factor receptor Kit, autoinhibited (KIT, Homo sapiens, UniProt P10721): 100%
Calcium/calmodulin-dependent protein kinase type 1G (CAMK1G, Homo sapiens, UniProt Q96NX5): 100%
Protein kinase C theta type (PRKCQ, Homo sapiens, UniProt Q04759): 90%
Mitogen-activated protein kinase kinase kinase 12 (MAP3K12, Homo sapiens, UniProt Q12852): 100%
Atypical kinase COQ8A, mitochondrial (COQ8A, Homo sapiens, UniProt Q8NI60): 87%
Phosphatidylinositol 4,5-bisphosphate 3-kinase catalytic subunit alpha isoform (PIK3CA, Homo sapiens, UniProt P42336, M1043I): 96%
Serine/threonine-protein kinase BRSK2 (BRSK2, Homo sapiens, UniProt Q8IWQ3): 81%
Serine/threonine-protein kinase Chk2 (CHEK2, Homo sapiens, UniProt O96017): 100%

Single results of other studies
CN(C)CC(=O)Nc1ccc2[nH]c(=O)c3ccccc3c2c1  nuclear SOX9 intensity (mouse MPNST tumor cells; high-content immunofluorescence imaging, refers to: nuclear SOX9; 10 µM, 12 h, mean of 2 replicates; relative to: DMSO control, higher = more nuclear SOX9): 154 % of DMSO
O=c1c(O)c(-c2ccccc2OC(F)F)oc2ccccc12  remaining compound (mouse, microsomes or S9; 2 µM, 0.5 h): 0%
CC(=O)Oc1ccccc1C(=O)O  nuclear SOX9 intensity (mouse MPNST tumor cells; high-content immunofluorescence imaging, refers to: nuclear SOX9; 10 µM, 12 h, mean of 2 replicates; relative to: DMSO control, higher = more nuclear SOX9): 91.3 % of DMSO and 88.4 % of DMSO

Some of these lines once more (series 2):
Serine/threonine-protein kinase Chk2 (CHEK2, Homo sapiens, UniProt O96017): 100%
Protein kinase C theta type (PRKCQ, Homo sapiens, UniProt Q04759): 90%
Calcium/calmodulin-dependent protein kinase type 1G (CAMK1G, Homo sapiens, UniProt Q96NX5): 100%
